Assay results pooled from the literature.
Every numbered part comes from another study and shows a few of its results, in no order. Substitutions count along the parent as printed.

Set 1
Target: RING finger protein unkempt homolog, zinc fingers 1-6, GST-SBP tag (UNK, Homo sapiens, UniProt Q9C0B0, residues 30-357)
Sequence of UniProt Q9C0B0 (30-357, looked up): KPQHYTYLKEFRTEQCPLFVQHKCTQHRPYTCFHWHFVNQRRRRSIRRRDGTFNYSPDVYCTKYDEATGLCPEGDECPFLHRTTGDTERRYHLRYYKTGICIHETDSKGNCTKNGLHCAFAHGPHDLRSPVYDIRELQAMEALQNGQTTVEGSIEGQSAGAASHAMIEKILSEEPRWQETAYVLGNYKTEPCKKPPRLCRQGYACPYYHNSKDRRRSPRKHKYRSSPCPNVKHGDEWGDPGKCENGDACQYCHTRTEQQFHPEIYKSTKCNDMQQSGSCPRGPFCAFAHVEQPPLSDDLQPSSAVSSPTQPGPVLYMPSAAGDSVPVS
Method: RNA Bind-n-Seq
Form: RNA
Sample: in vitro
Tested at: not given
Notes: RNA with constant flanks, human-mouse chimeric sites, ends assumed
Reference: input RNA pool
Reading: higher = stronger binding
Endpoint: bound/input enrichment
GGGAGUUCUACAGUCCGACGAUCAAAGAACCUCUCUCUGAUGAAGAUGAGGACAGUGAUGAUGAUGUUGAACCCAUUUCUGAAUUUCGAUUUGUGCCUAGUGAUAAGUCAGCAUUGGAGGCGAUGUUCACAGCAAUGUGUGAGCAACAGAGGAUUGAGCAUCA: 0.326 ratio
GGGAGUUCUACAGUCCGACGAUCUGUAGUUUCUUGAUUUAUCAUUUUUCUUGCUCGGGUUUUUCCUUUAGGAAAAGCCUAAAGAUUAGACUGUAAGAAAAACAGAAGCCAUGUUUCGAAGACCUGUGUUACAGGUAUUUCGUCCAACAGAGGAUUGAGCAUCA: 0.15 ratio
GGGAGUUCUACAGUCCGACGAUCGUGUCCUGCUUUCAACUUAAAUCACUGAGGCAUCUCUACUAUUCUGUUAAAAUCAGGACUGUAGCGCUGUGUCACCACAUGAGAGUUCAGAAGCAGCCUUUCUGUGGAGGGUGGGAAUGACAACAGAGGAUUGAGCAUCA: 0.132 ratio
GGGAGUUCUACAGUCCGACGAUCGUGUCCUGCUUUCAACUAUCACUGAGGCAUUUUUACUACUGUUCUGUGAGCAUCAGGACUGUAGCGCUGUGUCACCACAUGAGAGUUCAGAAGCAGCCUUUCUGUGGAGGGUGGGAAUGACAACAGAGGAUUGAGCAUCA: 0.117 ratio
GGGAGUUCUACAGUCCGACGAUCCUGAGGAUACCACUGAAGAGACCUUAAAAGAAUCAUUUGAGGGCUCUGUUCGUGCAAGAAUAGUCACUGAUCGGGAAACUGGUUCUUCCAAAGGGUUUUGGUUUUGUAGACUUCAACGUGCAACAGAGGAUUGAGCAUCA: 0.33 ratio
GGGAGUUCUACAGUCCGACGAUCCACACACUCUUCUGCGGGACCCUCAUCUUGCAGGCCCGAGCCUACGUGGGACCGCACGUCCUGGCAGUGGUGACCCGGACAGGGUUCUGCACGGCAAAAGGGGGCCUGGUGAGCUCCAUCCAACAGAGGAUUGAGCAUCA: 0.06 ratio
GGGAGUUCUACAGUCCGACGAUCCUCUUUGAAUCAUUCAAGAGUUUUGAAGGUCUCUUUUAUUUUCUGGGGUCCAUUGUUAACUUUAGCCAGGACCCAGAUGUGCACUUUAAAUAUAUUCAGGCAGCUUGCAAGACUGGGCAACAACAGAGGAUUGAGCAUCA: 0.322 ratio
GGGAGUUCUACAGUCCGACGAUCUACUACUAUGAUGGUGAUAUUGGAAAUUAUUAUUAUGGCCAGGGUCAUCCCAUGAAGCCUCAUAGAAUCCGGAUGACUCAUAACUUGCUGUUAAAUUAUGGUUUAUACCGAAAAAUGGAACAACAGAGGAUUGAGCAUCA: 0.131 ratio

Set 2
Target: CCNA2, cyclin fold, Cln2 fusion (human)
Method: yeast growth competition, sequencing
Sample: yeast
Notes: strong parent motif
Reference: not given
Reading: higher = stronger binding
Endpoint: normalised enrichment score
Starting sequence: SCAPER docking peptide (human); SNARRSLNFGGST; partner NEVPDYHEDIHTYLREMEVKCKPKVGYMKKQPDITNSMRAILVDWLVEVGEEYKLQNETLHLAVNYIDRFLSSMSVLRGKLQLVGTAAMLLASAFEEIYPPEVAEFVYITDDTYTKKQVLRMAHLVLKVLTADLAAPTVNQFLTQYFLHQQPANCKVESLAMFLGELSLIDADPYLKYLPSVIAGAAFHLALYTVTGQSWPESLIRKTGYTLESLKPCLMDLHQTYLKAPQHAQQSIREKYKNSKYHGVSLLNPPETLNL
R4E: -0.638
R5P: 0.39
R5N: 0.298
A3P: 4.71
R5T: 1.9
N2K: 6.83
N2W: 4.74
R5G: 0.197
R5V: 3.16
S1K: 6.08
T13S: 6.53
S1C: 6.84
S6K: 6.62
A3V: 6.14
G10H: 5.64
T13A: 6.27
S12P: 7.26
G11R: 5.59
S12W: 5.43
L7V: 0.537
A3S: 4.38

Set 3
Target: Ras GTPase-activating protein-binding protein 1, C-terminal RGG region (G3BP1, Homo sapiens, UniProt Q13283)
Sequence of UniProt Q13283 (whole entry, looked up): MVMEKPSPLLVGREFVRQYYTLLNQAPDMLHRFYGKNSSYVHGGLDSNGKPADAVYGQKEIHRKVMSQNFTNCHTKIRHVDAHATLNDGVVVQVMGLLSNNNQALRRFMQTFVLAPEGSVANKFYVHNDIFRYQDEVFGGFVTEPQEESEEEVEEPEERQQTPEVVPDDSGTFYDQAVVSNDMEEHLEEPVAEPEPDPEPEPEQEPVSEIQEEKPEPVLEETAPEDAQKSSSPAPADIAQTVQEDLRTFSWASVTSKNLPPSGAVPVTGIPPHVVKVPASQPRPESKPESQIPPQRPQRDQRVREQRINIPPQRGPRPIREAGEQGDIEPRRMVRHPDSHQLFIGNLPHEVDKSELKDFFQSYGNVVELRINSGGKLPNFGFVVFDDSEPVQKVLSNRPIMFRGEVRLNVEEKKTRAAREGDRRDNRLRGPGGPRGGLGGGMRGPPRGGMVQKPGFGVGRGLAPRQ
Method: RNA Bind-n-Seq
Form: RNA
Sample: in vitro
Tested at: 1 µM
Notes: whole 134-nt RNA, ends assumed
With: 150 mM KCl
Reference: input library
Reading: higher = stronger binding
Endpoint: log2 enrichment
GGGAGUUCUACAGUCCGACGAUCUCCUGUGCUACACAUCGUAUGUACCGAAUCGGGGAAAGGGGUUUUUUUGGGGUUUGGGGAAAGUAUUAUGUUACGCCGUUCGGAUCUGCAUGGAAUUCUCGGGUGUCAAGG: 1.7
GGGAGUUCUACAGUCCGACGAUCUGGGAGACGAUCGCGAUGAACACGGUGCUGUCGCGGGCGAACUCACUGUUCGCCUUCUCGCUGAGCGUGAUGGCGGCGCUCACCUUCGGCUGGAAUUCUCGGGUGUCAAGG: -1.92
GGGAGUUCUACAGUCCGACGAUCCACAGACAACACGCACCCACACAGACACAGAGGGAAUGGGUUGGGAUGGGGACAGGGUGCACAGCAGGGCGGGGUAGGACCCCAGCCCCUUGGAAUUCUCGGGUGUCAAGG: -0.104
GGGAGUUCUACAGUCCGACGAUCCUGUGCUACACAUCGUAUGUACCGAAUCGGGUUUUUUUGGGUUUUUUUGGGAAAAAAAGGGAAAGUAUUAUGUUACGCCGUUCGGAUCUGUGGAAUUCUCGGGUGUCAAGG: -1.79
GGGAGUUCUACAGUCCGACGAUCUCAAGUCCUGUGCUACACAUCGUAUGUACCGAAUCGGGAAAGGGUUUGGGAGGGAAAGUAUUAUGUUACGCCGUUCGGAUCUGCACUUCCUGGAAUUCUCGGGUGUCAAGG: 1.99
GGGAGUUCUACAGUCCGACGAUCAAGUCCUGUGCUACACAUCGUAUGUACCGAAUCGGUUUGGAAAAAAAGGAAAAAGGAAAGUAUUAUGUUACGCCGUUCGGAUCUGCACUUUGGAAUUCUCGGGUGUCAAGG: -2.13
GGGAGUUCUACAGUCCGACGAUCCCUGUGCUACACAUCGUAUGUACCGAAUCGGGGUGGGGUUUUUUUGGGGAAAAAAAGGGGAAAGUAUUAUGUUACGCCGUUCGGAUCUGCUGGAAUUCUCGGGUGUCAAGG: -0.272
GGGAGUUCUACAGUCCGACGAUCAAGUCCUGUGCUACACAUCGUAUGUACCGAAUCGGGUUUUGGGUUUUGGUUUUGGGGAAAGUAUUAUGUUACGCCGUUCGGAUCUGCACUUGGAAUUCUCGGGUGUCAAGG: -0.671
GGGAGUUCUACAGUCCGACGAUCGUCCUGUGCUACACAUCGUAUGUACCGAAUCGGGGAAAAGGGAAAAGGGGAAAAGGGGAAAGUAUUAUGUUACGCCGUUCGGAUCUGCACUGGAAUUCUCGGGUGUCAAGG: 0.134

Set 4
Target: ABI1, truncated, D143A, DHFR fusion (Arabidopsis thaliana)
Method: DHFR PCA, deep sequencing
Sample: yeast
Notes: methotrexate growth selection, single substitutions
With: (+)-ABA 1.4 µM
Reference: wild-type fitted maximum
Reading: higher = stronger binding
Endpoint: relative binding score
Starting sequence: PYL1, truncated, DHFR fusion (Arabidopsis thaliana); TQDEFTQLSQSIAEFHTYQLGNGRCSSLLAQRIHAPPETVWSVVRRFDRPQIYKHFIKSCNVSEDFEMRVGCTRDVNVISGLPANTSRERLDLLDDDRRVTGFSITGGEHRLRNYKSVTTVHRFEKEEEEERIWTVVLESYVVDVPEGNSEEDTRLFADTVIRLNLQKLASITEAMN
E139K: 9.47%
I52L: 58.3%
T73E: 63.2%
S27F: -13.4%
F15R: -3.34%
R88Q: 62.4%
V161S: 14%
G148M: -23.1%
N85E: 68.8%
L156Q: 26.5%
V145S: -14.1%
T160A: 11%
N85T: 80.6%
F157M: 14%
Y141T: -4.32%
A170D: 5.86%
T154I: -6.89%
